# Measurements pooled from the literature.
# Parts stem from different laboratories: compare values within a part only. Changes are numbered by the printed parent chain.
# Chain of UniProt P23975 (whole entry, looked up): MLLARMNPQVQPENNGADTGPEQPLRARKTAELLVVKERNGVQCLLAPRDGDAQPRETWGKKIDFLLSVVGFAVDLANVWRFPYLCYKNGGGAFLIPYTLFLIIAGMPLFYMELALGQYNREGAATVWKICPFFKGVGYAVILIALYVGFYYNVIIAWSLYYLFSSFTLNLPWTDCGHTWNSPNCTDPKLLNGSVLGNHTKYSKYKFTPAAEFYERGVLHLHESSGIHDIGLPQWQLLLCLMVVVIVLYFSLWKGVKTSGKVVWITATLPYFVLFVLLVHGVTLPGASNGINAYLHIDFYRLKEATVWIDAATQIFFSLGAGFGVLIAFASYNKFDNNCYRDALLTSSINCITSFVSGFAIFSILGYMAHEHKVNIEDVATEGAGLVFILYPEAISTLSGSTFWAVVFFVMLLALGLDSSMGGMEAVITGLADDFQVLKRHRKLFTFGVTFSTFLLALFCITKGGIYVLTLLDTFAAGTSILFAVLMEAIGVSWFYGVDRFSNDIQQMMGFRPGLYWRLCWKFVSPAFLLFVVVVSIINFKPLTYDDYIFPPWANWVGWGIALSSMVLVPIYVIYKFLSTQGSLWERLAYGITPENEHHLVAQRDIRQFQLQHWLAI

# Sample 1
# Target: CCND2, cyclin fold, Cln2 fusion (human)
# Technique: yeast growth competition, sequencing
# Matrix: yeast
# Setting: weak parent motif
# Baseline: not given
# Reading: higher = stronger binding
# Parent: viral docking peptide; KGVKRKLFAEDSS; partner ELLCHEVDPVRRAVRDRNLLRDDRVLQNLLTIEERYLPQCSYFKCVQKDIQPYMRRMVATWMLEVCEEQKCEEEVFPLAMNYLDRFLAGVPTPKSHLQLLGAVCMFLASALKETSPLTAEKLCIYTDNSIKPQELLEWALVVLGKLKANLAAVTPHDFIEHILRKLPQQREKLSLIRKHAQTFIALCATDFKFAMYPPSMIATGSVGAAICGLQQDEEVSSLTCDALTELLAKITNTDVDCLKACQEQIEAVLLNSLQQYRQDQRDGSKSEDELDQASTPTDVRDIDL
Substitution,normalised enrichment score
KGVKRKLPAEDSS [F8P],0.101
KGVKRKMFAEDSS [L7M],0.202
KGVKYKLFAEDSS [R5Y],-0.0898
KGVKRKLEAEDSS [F8E],0.411
KGVKRKLFAIDSS [E10I],-0.0403
KGVKRKLFLEDSS [A9L],0.0415
KGDKRKLFAEDSS [V3D],-0.351
KPVKRKLFAEDSS [G2P],0.523
KGVKRKLFAEDFS [S12F],0.0696
KGVKRKLFAEDAS [S12A],0.335
KGPKRKLFAEDSS [V3P],0.327
KGVKRGLFAEDSS [K6G],0.351
KGVKNKLFAEDSS [R5N],-0.118
KGVKRKLFANDSS [E10N],-0.471

# Sample 2
# Target: Probable WRKY transcription factor 33, C-terminal DNA-binding domain (WRKY33, Arabidopsis thaliana, UniProt Q8S8P5, residues 346-449)
# Technique: DNA-protein interaction ELISA
# Molecule type: double-stranded DNA, one strand shown
# Matrix: in vitro, bacterial lysate
# Tested at: not given
# Setting: whole dsDNA probe, crude lysate protein
# Baseline: highest signal in screen
# Reading: higher = stronger binding
# Target sequence (chain): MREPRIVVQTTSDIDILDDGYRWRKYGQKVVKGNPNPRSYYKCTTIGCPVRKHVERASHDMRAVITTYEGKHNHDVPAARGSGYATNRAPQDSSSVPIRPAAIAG
Oligonucleotide,relative absorbance
AAAAAATTAGCTTATCCTTGCTTGTGAAAA,31.8 % of maximum
AAAAAACTCGACATAGAATGCGGAAAAAAA,36 % of maximum
AAAAAATGCAGACCTTCAGCTGGGTAAAAA,27.1 % of maximum
AAAAAATACGTCTACGTGGTTGTCGTAAAA,74.4 % of maximum
AAAAAACGGGATTCGAAACTTTTTGTAAAA,32.1 % of maximum
AAAAAAAGCTTCTATAGCTCCATGGAAAA,34.5 % of maximum
AAAAAACTCGCGCTTGCATCTGTGCGAAAA,28.6 % of maximum
AAAAAATTTGCTCTTTTGGTTTTCACAAAA,23.9 % of maximum

# Sample 3
# Target: UDP-N-acetylglucosamine--peptide N-acetylglucosaminyltransferase 110 kDa subunit (OGT, Homo sapiens, UniProt O15294)
# Chain of UniProt O15294 (whole entry, looked up): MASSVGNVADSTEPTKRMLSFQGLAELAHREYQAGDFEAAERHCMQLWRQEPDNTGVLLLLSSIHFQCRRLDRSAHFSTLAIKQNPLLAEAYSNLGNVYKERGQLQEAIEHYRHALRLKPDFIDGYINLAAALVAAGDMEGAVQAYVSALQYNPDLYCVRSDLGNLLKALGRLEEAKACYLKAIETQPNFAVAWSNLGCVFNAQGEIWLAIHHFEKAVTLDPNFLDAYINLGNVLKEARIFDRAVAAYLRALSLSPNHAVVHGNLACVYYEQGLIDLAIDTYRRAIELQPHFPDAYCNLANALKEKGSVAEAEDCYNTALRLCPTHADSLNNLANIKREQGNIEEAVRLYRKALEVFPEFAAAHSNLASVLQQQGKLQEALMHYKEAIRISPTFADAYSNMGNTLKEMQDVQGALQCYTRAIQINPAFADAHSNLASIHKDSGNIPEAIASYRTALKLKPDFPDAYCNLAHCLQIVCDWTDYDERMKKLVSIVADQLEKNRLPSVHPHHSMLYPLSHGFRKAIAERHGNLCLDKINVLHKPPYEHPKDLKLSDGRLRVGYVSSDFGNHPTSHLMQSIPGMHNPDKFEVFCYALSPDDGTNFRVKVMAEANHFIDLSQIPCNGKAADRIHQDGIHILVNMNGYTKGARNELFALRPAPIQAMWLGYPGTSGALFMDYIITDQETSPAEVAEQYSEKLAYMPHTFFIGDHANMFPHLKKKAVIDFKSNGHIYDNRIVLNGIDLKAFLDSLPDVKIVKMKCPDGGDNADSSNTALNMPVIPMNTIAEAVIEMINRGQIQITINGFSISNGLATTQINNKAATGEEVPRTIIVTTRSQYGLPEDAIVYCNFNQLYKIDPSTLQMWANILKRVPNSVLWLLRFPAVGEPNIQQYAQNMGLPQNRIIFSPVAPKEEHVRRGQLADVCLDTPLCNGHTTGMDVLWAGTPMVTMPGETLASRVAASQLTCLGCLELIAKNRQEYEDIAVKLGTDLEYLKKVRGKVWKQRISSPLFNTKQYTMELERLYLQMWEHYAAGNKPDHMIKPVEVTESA
# Effect on: binding
# Technique: phage display NGS
# Molecule type: peptide
# Tested at: concentration not given
# Setting: normalized abundance
# Baseline: input library
Molecule,enrichment fold change
SYFPVYQIQSFYPVT,9.94
WPSVMHHHHVQQTAA,18.6
HFADSRSWHHYSTGH,3.94
RVNHHWGFNTHTYTA,4.86
AFVPPWAPMYQIVMG,8.47
VDYRPAYPIDWAPWK,5.85
NFLPQYQITAGAYET,13.1
STRWFHPSHYHAMFH,10
TYLHHGDVVDMTSHV,8.67
DWHTDHWQSDHVHVH,4.71
VQQQFWPMYEIEYDK,18.4
QDLEQHMFMHHHDKH,6.09
VGYHGTPYHKHGAHI,6.53
RHDPMSFQPVYQIKY,68.6
HDGLKWGKHFTHHRG,4.13
HTRWHSNRTHEQHHV,9.69
MRTEHIYPPVYTITY,6.57

# Further values, each from its own experiment
SMILES,target,assay,setting,measurement,value
O=C(NNS(=O)(=O)c1ccccc1F)c1cc(F)cc(-c2ccccn2)c1,"Sodium-dependent noradrenaline transporter (SLC6A2, Homo sapiens, UniProt P23975)",cell-free assay,10 µM,inhibition,-15.5%
